# Assay results pooled from the literature.
# A part holds a random share of what one study measured.

# Sample 1
# Target: Sal-like protein 4, full length isoform B (SALL4, Homo sapiens, UniProt Q9UJQ4-2, residues 1-616)
# Method: universal PBM
# Form: double-stranded DNA, one strand shown
# Matrix: in vitro
# Concentration: not given
# Setting: 8-mer, flanks averaged, mean of replicates
# Reading: higher = stronger binding
# Construct (chain): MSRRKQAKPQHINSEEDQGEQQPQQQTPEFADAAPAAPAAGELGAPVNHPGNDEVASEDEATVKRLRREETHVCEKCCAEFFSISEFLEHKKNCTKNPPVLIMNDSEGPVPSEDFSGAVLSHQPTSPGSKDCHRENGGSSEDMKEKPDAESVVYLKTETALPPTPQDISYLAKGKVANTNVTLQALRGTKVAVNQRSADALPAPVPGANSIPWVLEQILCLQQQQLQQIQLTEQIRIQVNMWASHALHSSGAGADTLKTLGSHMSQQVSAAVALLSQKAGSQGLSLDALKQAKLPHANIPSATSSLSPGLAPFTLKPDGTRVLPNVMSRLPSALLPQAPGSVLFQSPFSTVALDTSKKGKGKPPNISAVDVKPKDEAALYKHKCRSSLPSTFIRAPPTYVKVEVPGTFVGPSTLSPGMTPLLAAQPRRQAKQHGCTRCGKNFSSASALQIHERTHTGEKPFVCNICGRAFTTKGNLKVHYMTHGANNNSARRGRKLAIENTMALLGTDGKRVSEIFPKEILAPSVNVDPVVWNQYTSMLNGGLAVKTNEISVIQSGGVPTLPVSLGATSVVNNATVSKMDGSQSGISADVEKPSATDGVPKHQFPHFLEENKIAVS
Oligonucleotide,E-score
ACAACCAG,-0.0407
CCAAACCG,-0.3
AGCAACAC,-0.135

# Sample 2
# Target: Interferon regulatory factor 5, full length, phosphomimetic (IRF5, Homo sapiens, UniProt Q13568-2, residues 1-514, K96S/S451D/S453D/S456D/S462D)
# Method: protein-binding microarray
# Form: double-stranded DNA, one strand shown
# Matrix: in vitro
# Concentration: 250 nM
# Setting: 60-bp whole probe
# Added: salmon DNA 0.4 mg/ml
# Baseline: random background probes
# Reading: higher = stronger binding
Oligonucleotide,log fluorescence [z-score]
GCCTAGCACTTTGATATCAGACTGGATTAGTGCTAGGTCTTGATTCGCTTGACGCTGCTG,0.462
GCCTAGCACTCACCTTTCGGAATACCACTGTGCTAGGTCTTGATTCGCTTGACGCTGCTG,5.55
GCCTAGCACTCATGTTTTGTTTTTCAACTGTGCTAGGTCTTGATTCGCTTGACGCTGCTG,1.58

# Sample 3
# Target: Histone acetyltransferase KAT6A, both winged helices, GST fusion (KAT6A, Homo sapiens, UniProt Q92794, residues 1-181)
# Method: protein binding microarray
# Form: double-stranded DNA, one strand shown
# Matrix: in vitro
# Concentration: not given
# Setting: 8-mer, flanks averaged, mean of 2 arrays, mostly near background
# Baseline: not given
# Reading: higher = stronger binding
# Construct (chain): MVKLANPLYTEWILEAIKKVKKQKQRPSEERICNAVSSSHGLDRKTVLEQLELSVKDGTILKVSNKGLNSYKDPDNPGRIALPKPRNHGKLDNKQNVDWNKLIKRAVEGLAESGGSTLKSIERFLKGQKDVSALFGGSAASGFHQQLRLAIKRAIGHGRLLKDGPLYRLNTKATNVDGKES
Oligonucleotide,E-score
AAGTGGCT,-0.105
CCAACGAC,-0.00987
AGTGGCAC,-0.164
ATTTACCA,-0.141

# Single results of other studies
Substance,target,assay,system,setting,scale,measurement,value
"PhoQ, residues 284 288 289 292 302 303 TNASYF","PhoP, residues 12 14 15 18 19 FWNTL (Escherichia coli, UniProt P23836)","Sort-seq, item: YFP reporter",E. coli,"PhoQ-PhoP variant library, added: 10 µM Mg2+","baseline: high Mg2+ state, higher = stronger signaling",fold induction,3.07
